Measurements collected from several papers.
Numbered parts are unrelated; each lists some results of a single study.

Block 1 — method: RNA Bind-n-Seq; form: RNA; matrix: in vitro; concentration: 365 nM; reference: no-protein control; reading: higher = stronger binding
Target: RNA binding protein fox-1 homolog 2, RRM domain, GST-SBP tag (RBFOX2, Homo sapiens, UniProt O43251-10, residues 100-194)
Notes: natural RNA segment, single round, ends assumed
Target sequence (chain): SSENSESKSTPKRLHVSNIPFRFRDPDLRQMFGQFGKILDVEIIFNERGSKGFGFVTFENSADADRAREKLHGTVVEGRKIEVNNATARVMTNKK
Oligonucleotide | RBNS enrichment (R)
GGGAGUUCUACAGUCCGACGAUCCCAAAAUAACCACCUUGUAAAUACCCUUAGAGCCAGCCCUGAUGCUUUACAUCAUUGCUACUUGAUUUUGUUAUGCAACUCAGAUCUCAGAUCUCAGAAUACUUAACCAAUGGAAUUCUCGGGUGCCAA | 0.299
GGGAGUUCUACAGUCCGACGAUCGUCCCUUCCCCCUGAAGCAAUAGCCCCUCCCCACCUCCUGCAAUACGCCUUUCCAAUCUUUAUUGGAAGUCUCUCCCUGCCUACUUCCUAAUUUAUUCUUAUUUGACAGAUGGAAUUCUCGGGUGCCAA | 0.92
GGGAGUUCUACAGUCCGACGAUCUACUUGAGAACUACAGUUUCUGCUUAUCAUUUAUUCUUCCUUGUGGCACUUAAUAUUUUAAUUGUCUUAAGCUUUUUGAUGUAUAUAUCCUCUGGCCCCUUACAUGCUGCUGGAAUUCUCGGGUGCCAA | 1.54
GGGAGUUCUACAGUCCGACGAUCACUCCAAGAAAACAGAAGCUAUGUGGCCUCUGAUCCCCAAACUGGCCUGGGUGGGGACAUGCCUUGAGUGUGCUGGAAUGUGGGUGGAGCCUGCUUCUGGGCCACCCCUCUGGAAUUCUCGGGUGCCAA | 0.385
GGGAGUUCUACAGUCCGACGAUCAUGACCACUGUGCUUUGCUACCAACUGACUGAACUCCAGCCAGCCAAAUGAAACCAUGUACCCUUGGCAUAAGAGCCUAGGUAAAAUAAUAUGCAGUAGUAUAGUGUGGAUGGAAUUCUCGGGUGCCAA | 0.383
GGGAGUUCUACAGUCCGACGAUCUUUUGAGGUGGGGGGAGGGAGGAGGUAUAUUGGAACUCUUCUAACCUCCUUGGGCUAUAUUUUCUCUCCUCGAGUUGCUCCUCAUGGCUGGGCUCAUUUCGGUCCCUUUCUGGAAUUCUCGGGUGCCAA | 0.34
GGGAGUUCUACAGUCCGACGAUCGUUUUGUUAUGUUGAGAUGUUUCUAAAGAAAAGAUUUUAUGUAAUUAUAAGAUGAAGCGUAGUGAAUUGUACAGCUGUUGUAAUAAUGACCUAUUUCUAUAUAAAAUAAAUGGAAUUCUCGGGUGCCAA | 1.22
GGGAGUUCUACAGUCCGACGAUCUGGUGCCACAGCUCACUGUGACCUUGACCUUCUGGACUCAAGUGAUCCUCCUGCCUCAGCUUCCCAAGUAGCGGGGAUCACAGGCAUGAGCCGCCACACCCGGCCAUCACUGGAAUUCUCGGGUGCCAA | 0.132
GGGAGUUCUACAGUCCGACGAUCAAAUUUUAGCUUAAUUGUCUUUGACAAUGGACUAUUUGGAGAAAUGAAUGAAUAGGUUGUGGCUGUCAACCUCUGGAACCAGAAGUGCCUGUAAGACAGUCCUUCAAGUUUGGAAUUCUCGGGUGCCAA | 0.841
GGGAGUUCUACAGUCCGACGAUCCCUUGCCCUUUGAGAGUGUCCAUUGCUGGCCAUGGUCACUAAAUUUGAAGUUCCAGUCCUCCCUUUGGAGUGGACAUUUAAAAUCUGCAGCCAUUCCUUGCUUCAGUUCCUGGAAUUCUCGGGUGCCAA | 0.306
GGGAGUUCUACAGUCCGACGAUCUUGUCUUUCUUUUUUAUUUUUUAAGUAUUGGAAUAAGUCUAAUGAAAAAGAAAGUGCCUUAUUUUUCUUCAUGGUCAUUUAGUCAAGUGUCCUGUAAGAUCAGCUCCUCCUGGAAUUCUCGGGUGCCAA | 0.689
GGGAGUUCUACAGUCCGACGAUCCAAGGCUGCAUUUGAAUGAUUUCCUUAGGAUGAAUGGUCCCUACACAAAGAGGCCUUGUGGGCAAACCUGGAGAACCCUCCUAAAUCCAUAGAGUUUUCAAAAUGUGAAUUGGAAUUCUCGGGUGCCAA | 2.2

Block 2 — method: protein-binding microarray; form: double-stranded DNA, one strand shown; matrix: in vitro; concentration: not given; reading: higher = stronger binding
Target: Protein C-ets-1 (ETS1, Homo sapiens, UniProt P14921, residues 1-441, full length assumed)
Notes: k-mer, scored over probes, only values ≥0.25
Target sequence (chain): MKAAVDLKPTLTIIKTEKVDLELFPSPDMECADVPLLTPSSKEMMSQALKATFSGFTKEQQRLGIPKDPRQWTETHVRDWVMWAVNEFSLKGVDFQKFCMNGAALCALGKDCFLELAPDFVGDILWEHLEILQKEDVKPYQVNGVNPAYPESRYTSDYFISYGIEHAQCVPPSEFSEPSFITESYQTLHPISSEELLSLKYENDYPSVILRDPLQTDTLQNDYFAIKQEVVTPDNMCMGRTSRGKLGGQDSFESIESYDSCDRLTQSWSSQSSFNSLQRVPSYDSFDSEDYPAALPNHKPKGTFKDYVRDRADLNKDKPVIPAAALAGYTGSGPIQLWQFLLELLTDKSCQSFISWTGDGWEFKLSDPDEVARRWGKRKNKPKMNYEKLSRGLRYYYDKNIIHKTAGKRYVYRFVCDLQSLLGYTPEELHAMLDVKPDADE
Oligonucleotide | E-score
ACCCCGGT | 0.254
AGGCGGAT | 0.354
TGCGGGAA | 0.256
CTCTTTCC | 0.311
CCATCCGA | 0.288
CACCGGAG | 0.273
TCACCGGA | 0.448
CAGGATAG | 0.308
AGGATATA | 0.347
GAAATTCC | 0.256
CACCATTA | 0.271
GACAGGAC | 0.269
CGTGCGGA | 0.335
CAACGGAA | 0.409

Block 3 — method: RNA Bind-n-Seq; form: RNA; matrix: in vitro; concentration: not given; notes: RNA with constant flanks, ends assumed; reference: input RNA pool; reading: higher = stronger binding
Target: RING finger protein unkempt homolog, zinc fingers 1-6, GST-SBP tag (UNK, Homo sapiens, UniProt Q9C0B0, residues 30-357)
Chain of UniProt Q9C0B0 (30-357, looked up): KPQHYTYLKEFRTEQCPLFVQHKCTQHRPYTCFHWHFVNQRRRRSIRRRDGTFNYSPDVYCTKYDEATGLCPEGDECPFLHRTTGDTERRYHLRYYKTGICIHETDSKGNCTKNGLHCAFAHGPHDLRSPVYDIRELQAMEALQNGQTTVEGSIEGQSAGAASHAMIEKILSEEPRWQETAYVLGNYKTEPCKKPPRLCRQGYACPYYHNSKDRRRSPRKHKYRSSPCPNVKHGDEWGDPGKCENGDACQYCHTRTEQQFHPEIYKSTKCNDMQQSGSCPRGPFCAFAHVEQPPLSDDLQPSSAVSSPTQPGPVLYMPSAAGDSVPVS
Oligonucleotide | bound/input enrichment [ratio]
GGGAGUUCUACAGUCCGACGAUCGACAAAAAAGCAGAAAUUCUAAUUAACAAGACACAUAAGCAGCAGUUUAAUAAACUCAUUACCCGCCAGGCUGUGCAUGUUACAACUCAUUCUAAAAAUGCUUCACACAGGGUUCCAAGACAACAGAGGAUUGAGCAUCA | 0.336
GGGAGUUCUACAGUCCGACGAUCGAUAAUGACCAUCUUCAACUUUCUGCAGAAGUCGUGGAAGGUAGUAGAUACCAGGAAUCAUCCGGCAAUACAGUAUUUGAGUUGGAAAACAGAGAGGCAGAGGCAUACACUGGUCUUUCACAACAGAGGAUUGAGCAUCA | 0.186
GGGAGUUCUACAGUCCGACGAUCGUUGAUGUGGAUUCUCUUGCUGAGUUAGAUGAUGGAAUGGCUUCCAAUCAAAAUUCUCCCAUCCGAACUUUUGGUCUCAAUCUUUCUUCGGAUUCUUCAGCACUAGGGGCUGUUGCUUCUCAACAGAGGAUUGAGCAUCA | 0.378
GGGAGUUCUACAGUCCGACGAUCUUGAAAGGUAAUGGGAGCCCAGUCAAUGGGAGUUCUCAGCAGGGAACCUCAAAUCCUUCCCCCGGUUCAACUAUUCCAAGUCUUCAGAAUUCAUUAAAUGGAUCUUCUGCUGGCAGAAAGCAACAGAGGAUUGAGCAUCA | 0.21
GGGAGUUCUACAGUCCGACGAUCGAUACAUACUUAUUUGUGAAUCAUAUCCCUGUAAGUAAGACAAGAAACACUUCCUCAUUCCCGGUACAUAAUACACCAGCUUUAGCUUGUACCGAUUUGUGAGGUGUUAAGAUUUUGAGGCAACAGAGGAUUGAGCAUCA | 0.37
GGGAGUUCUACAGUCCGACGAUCCAGAUUUAUACUCCUGACGUGUCUCAUUCACAGCUAAAUAAUAGGCCAUAGGACUUUUGGCCGGUUUAAACUUUUAAUUCUGUAUUUCAUGAUUAUAAGUCUUGCUAGAAUUUUUUCUAACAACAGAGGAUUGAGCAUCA | 0.445
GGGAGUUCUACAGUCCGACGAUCUUCCCAAAGGCCUGGGAGCUUUUUGAAAAGAAAGAAAAAAGUGUGUUGGCUUUUUUUUUUUUCCGAAAGUUAGAAUUGUUUUUACCAAGAGUCUAUGUGGGGCUUGAUUCACCCUUCAUCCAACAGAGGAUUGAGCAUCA | 0.676

Block 4 — method: RNA Bind-n-Seq; form: RNA; matrix: in vitro; concentration: 200 nM; notes: whole 134-nt RNA, ends assumed; with: 150 mM LiCl; reference: input library; reading: higher = stronger binding; each molecule: 7-deaza-guanosine replaces G
Target: Ras GTPase-activating protein-binding protein 1, full length (G3BP1, Homo sapiens, UniProt Q13283)
Chain of UniProt Q13283 (whole entry, looked up): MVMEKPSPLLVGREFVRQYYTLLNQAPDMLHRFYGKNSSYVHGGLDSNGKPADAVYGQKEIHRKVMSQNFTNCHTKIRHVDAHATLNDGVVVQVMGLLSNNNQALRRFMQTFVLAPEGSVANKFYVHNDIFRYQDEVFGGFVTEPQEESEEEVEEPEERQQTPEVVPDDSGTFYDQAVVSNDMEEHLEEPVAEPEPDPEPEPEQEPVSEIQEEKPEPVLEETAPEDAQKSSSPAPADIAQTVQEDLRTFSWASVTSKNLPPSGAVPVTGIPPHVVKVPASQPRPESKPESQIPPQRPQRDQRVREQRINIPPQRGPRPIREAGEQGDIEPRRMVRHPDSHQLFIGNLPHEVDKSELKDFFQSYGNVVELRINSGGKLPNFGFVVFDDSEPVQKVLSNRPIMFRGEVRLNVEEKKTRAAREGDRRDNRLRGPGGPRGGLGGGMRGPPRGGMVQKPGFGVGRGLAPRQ
Oligonucleotide | log2 enrichment
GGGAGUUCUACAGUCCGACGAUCCAAGUCCUGUGCUACACAUCGUAUGUACCGAAUCGGAAAAAAAGGAAAGGUUUGGAAAGUAUUAUGUUACGCCGUUCGGAUCUGCACUUCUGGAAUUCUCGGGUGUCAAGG | -2.25
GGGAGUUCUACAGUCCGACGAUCUCCUGUGCUACACAUCGUAUGUACCGAAUCGGGUUUGGGAAAAAAAGGGUUUUUUUGGGAAAGUAUUAUGUUACGCCGUUCGGAUCUGCAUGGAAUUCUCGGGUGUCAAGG | -0.566
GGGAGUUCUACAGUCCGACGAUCCAAGUCCUGUGCUACACAUCGUAUGUACCGAAUCGGUUUUGGUUUUGGUUUUGGGAAAGUAUUAUGUUACGCCGUUCGGAUCUGCACUUCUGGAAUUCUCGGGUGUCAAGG | -0.956
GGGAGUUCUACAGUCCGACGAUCUCGGACGCCGCCAACCUGCACGAGUUCCACGCGGACCUGCGCUCAUGCUUUGCACCCCAGCACAUGGCCAUGCUGUGUAGCCCCAUCCUCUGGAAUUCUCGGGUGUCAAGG | 0.215
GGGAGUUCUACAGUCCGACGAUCUAGGUGUUAUCUUCAGGAAGGCACACUGGACCUGCUAAAUUAACAAAUGGAAAGAAAGCGUAAGUACUUGAAGACGUUUACAACUUCAGAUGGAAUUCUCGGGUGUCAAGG | -2.53
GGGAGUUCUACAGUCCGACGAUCACCAUGCAGGUGGGCACCUUUGGGAAGUGGGGCAAGGGGGGGAUAGGGAGGGGGGUAACACUUUGGGAACAGGUGGUCCCAGGUCGUUUCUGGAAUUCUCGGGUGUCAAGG | 0.0922
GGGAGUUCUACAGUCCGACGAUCUGCUGCGGAAGGGCUCUGGCACUCUGUGUGAGGCCUUGCUGAUGGUGCAGGCCUUCCACGCCAACAUCAUCUUCCCCAACAAGCAAGAGCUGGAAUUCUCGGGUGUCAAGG | -0.716
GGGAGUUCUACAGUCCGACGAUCAGUCCUGUGCUACACAUCGUAUGUACCGAAUCGGGUUUUUGGGUUUUUGGUUUUUGGGAAAGUAUUAUGUUACGCCGUUCGGAUCUGCACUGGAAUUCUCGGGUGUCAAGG | -0.338
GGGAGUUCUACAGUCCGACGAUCCUCAAGUCCUGUGCUACACAUCGUAUGUACCGAAUCGGAAAGGUUUUUGGUGGAAAGUAUUAUGUUACGCCGUUCGGAUCUGCACUUCCAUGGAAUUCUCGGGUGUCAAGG | 0.245
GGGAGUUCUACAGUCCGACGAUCUCAAGUCCUGUGCUACACAUCGUAUGUACCGAAUCGGGGUUUGGGUUUGGUUUGGAAAGUAUUAUGUUACGCCGUUCGGAUCUGCACUUCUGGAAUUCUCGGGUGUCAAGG | -0.25
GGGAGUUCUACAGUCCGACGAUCUGGCCCUGGUGGCAUGGGGGGAGGAAGAGGUGGCCUCAUGGAUCGUGGUGGUCCCGGUGGAAUGUUCAGAGGUGGCCGUGGUGGAGACAGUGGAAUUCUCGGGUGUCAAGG | 0.478

Excerpt of the above (block 2):
Oligonucleotide | E-score
CAACGGAA | 0.409
CACCATTA | 0.271
CTCTTTCC | 0.311
CGTGCGGA | 0.335
GAAATTCC | 0.256
AGGATATA | 0.347
TGCGGGAA | 0.256
